Experimental data collected from several papers.
Numbered parts are unrelated; each lists some results of a single study. Positions count from the first letter of the parent shown.

Study 1 — method: RNA Bind-n-Seq; molecule type: RNA; medium: in vitro; tested at: 200 nM; setting: whole 134-nt RNA, ends assumed; added: 150 mM LiCl; reference: input library; reading: higher = stronger binding; each molecule: 7-deaza-guanosine replaces G
Target: Ras GTPase-activating protein-binding protein 1, full length (G3BP1, Homo sapiens, UniProt Q13283)
Chain of UniProt Q13283 (whole entry, looked up): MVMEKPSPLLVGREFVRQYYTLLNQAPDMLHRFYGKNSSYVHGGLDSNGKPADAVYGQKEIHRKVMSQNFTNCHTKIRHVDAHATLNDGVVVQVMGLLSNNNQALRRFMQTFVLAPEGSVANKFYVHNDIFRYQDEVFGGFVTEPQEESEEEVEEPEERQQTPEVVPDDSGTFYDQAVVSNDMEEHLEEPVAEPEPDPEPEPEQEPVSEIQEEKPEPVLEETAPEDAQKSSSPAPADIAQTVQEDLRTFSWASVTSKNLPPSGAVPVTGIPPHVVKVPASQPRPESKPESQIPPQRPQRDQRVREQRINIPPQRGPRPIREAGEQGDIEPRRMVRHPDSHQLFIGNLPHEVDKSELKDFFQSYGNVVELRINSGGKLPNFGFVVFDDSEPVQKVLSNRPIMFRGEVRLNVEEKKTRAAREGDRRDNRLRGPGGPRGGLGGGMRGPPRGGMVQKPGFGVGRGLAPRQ
Shared flanks, not repeated: GGGAGUUCUACAGUCCGACGAUC … UGGAAUUCUCGGGUGUCAAGG
The log2 enrichment of `CCUCAAGUCCUGUGCUACACAUCGUAUGUACCGAAUCGGAGGAGGUUUUUGGAAAGUAUUAUGUUACGCCGUUCGGAUCUGCACUUCCAG` is reported as -0.012.
With `GUCCUGUGCUACACAUCGUAUGUACCGAAUCGGGUUUUUGGGUUUUUGGGUUUUUGGGGAAAGUAUUAUGUUACGCCGUUCGGAUCUGCA` the log2 enrichment was -0.466.
With `CAAGUCCUGUGCUACACAUCGUAUGUACCGAAUCGGGUUUGGGUUUGGGAAAGGGAAAGUAUUAUGUUACGCCGUUCGGAUCUGCACUUC` the log2 enrichment was -0.603.
With `ACCAUGCAGAUGGGCAUCUUUGGGAAGUGGGGCAAGGGGGGGAUAGGGAGGGGGGUAACACUUUGGGAACAGGUGGUCCCAGGUCGUUUC` the log2 enrichment was 0.232.
`CCUGUGCUACACAUCGUAUGUACCGAAUCGGGAAAAAAAGGAAAAAAAGGAAAAAAAGGGAAAGUAUUAUGUUACGCCGUUCGGAUCUGC` has a log2 enrichment of 0.00427.
`CCUCAAGUCCUGUGCUACACAUCGUAUGUACCGAAUCGGGAGGAGGGAGGGGAAAGUAUUAUGUUACGCCGUUCGGAUCUGCACUUCCAG` gave a log2 enrichment of 0.372.
The log2 enrichment of `UCCUGUGCUACACAUCGUAUGUACCGAAUCGGGGUUUUUGGGGUUUUUGGGGAAAGGGGAAAGUAUUAUGUUACGCCGUUCGGAUCUGCA` is reported as 0.246.
With `CCUCAAGUCCUGUGCUACACAUCGUAUGUACCGAAUCGGGCCGGCCGGCCGGAAAGUAUUAUGUUACGCCGUUCGGAUCUGCACUUCCAG` the log2 enrichment was 0.235.

Study 2 — method: RNA Bind-n-Seq; molecule type: RNA; medium: in vitro; tested at: not given; reference: input RNA pool; reading: higher = stronger binding
Target: RING finger protein unkempt homolog, zinc fingers 1-6, GST-SBP tag (UNK, Homo sapiens, UniProt Q9C0B0, residues 30-357)
Chain of UniProt Q9C0B0 (30-357, looked up): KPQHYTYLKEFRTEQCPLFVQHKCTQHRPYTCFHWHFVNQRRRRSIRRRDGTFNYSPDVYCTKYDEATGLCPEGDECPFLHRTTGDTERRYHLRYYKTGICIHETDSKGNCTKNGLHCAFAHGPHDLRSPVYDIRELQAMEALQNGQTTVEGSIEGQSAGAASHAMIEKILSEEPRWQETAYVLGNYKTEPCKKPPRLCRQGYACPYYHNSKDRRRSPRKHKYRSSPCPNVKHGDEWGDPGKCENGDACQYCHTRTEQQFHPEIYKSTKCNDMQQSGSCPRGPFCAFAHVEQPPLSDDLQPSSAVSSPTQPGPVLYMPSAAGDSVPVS
Setting: RNA with constant flanks, human and mouse sites, ends assumed
Shared flanks, not repeated: GGGAGUUCUACAGUCCGACGAUC … CAACAGAGGAUUGAGCAUCA
With `ACAUCAUCAGUUUUUCGAUUAGUUUCUAGACCCAAACCAUUAUCAGCAGUUCCAAAGCAAGUUGUAACAGGAACUGUGUUGACAAGAUCUGUUUUCAUCAACAAUGUGUUAUCUAAAAUU` the bound/input enrichment was 1.19 ratio.
For `GUGCAACAAAAGCCGACGCAGAGGGAAGGAGCAGUCGUCCCCUUGCUUUAUUUGUGUCUUUUGCAGACAUCUUCACAGUGAUGAACGCCUCAGGGAAGAUGUACAUAUCUCUUGUAUAUU`, the bound/input enrichment was 0.0762 ratio.
For `UGAUAAAACUGACUGUAAAUUAAUUUGGGGAAAGCCAGUAUUGUUAAAAUACCAUUUUAUACAAAAUAAAAAGCUGCUCUCACUGUCAGCUCUCAUAUUCUUCCAGGUUUUGCACUCUAC`, the bound/input enrichment was 0.233 ratio.
For `GCACUCUGAACUGCCGUAAACUGUAUAGCUUACUCAAACAUCUAAAGCUCUGCCACAGCAGGUUCAUCUUCAAUUACGUAUAUCAUCCAAAAGGUGCUAGGAUAGAUGUUUCAAUCAAUG`, the bound/input enrichment was 0.95 ratio.
`GUUCCGGAAAUCAUGGAUCGGAUCUACAAAAAUGUCAUGAAUAAAGUGAAUGAAAUGAGUGCUUUUCAACGAAACUUGUUUAUUUUGGCAUAUAAUUAUAAGAUGGAACAGAUUUCAAAA` gave a bound/input enrichment of 0.127 ratio.
The bound/input enrichment of `UAGACGGGAAGGAUUAUAUAGCUUCCUUACCUUUUCAGGUGGCAAAUGUUUGGGCCACUAAAUAUGGCUUGCUGUUUGAACGAUGCAGUUCUUCACAUGAGGUACCUCCAAGUCUACCUA` is reported as 0.0824 ratio.
For `UAUAGUUGGGAUGAUCAAUGCAGUGCUGUUGAAGUGGGAGAGAAGAAAUGUGGAAACCUGGCUUGUCUGCCAGAUGAGAAGAAUGUUCUUGUUGUAGCCGUCAUGCAUAACUGUGAUAAA`, the bound/input enrichment was 0.501 ratio.
With `UGGGUAUCCCUGGUCAGUAAGAAUUAUGAGAUUGAACGGACUAUUGUUCAGCUAGAAAAUGAAAUCUAUCAAAUUAAGCAGCAACAUGGAGAGGCAAACAAAGAAAACAUCCGGCAAGAC` the bound/input enrichment was 0.975 ratio.
For `CGGAGCCCCCUGACCCAGGAACAGCUCAUCCCCAACUUGGCUAUGAAGGAGGUUAUUGACGCAUUCAUCUCUGAGAAUGGCUGGGUGGAGGACUACUGAGGUUCCCUGCCCUACCUGGCG`, the bound/input enrichment was 0.0665 ratio.
With `CCUGUCAUUCACAACGGAAGCCAGGGCACGGGCACCAAUGGGUCGGAAAUCAGUGAUAGCGAUUAUCAGGCAGAAUACCCCGAUGAAUAUCAUGGCGAGUACCCAGACGACUACCCUCGG` the bound/input enrichment was 0.158 ratio.
`GUCAUGUGACAACUCAGCUCACAUCACCAGCUCACCUCUGGUAGCCAUAGCAGCCCCUGCUUCAGCCCCACCGCACCCCUCCAGGGGGCCUGCCUUUCCCUGACACUUUUGGGGUCUGCC` has a bound/input enrichment of 0.189 ratio.

Study 3 — method: protein binding microarray; molecule type: double-stranded DNA, one strand shown; medium: in vitro; tested at: not given; reference: not given; reading: higher = stronger binding
Target: Histone acetyltransferase KAT6A, winged helix 1, GST fusion (KAT6A, Homo sapiens, UniProt Q92794, residues 1-85)
Setting: 8-mer, flanks averaged, mean of 2 arrays, mostly near background
Construct (chain): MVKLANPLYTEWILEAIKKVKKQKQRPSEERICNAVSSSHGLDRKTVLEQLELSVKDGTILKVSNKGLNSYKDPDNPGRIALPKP
`GCTGAACA` gave an E-score of -0.223.
For `CAGTACTA`, the E-score was -0.109.
For `CAATTAGC`, the E-score was 0.0725.
`TCCGCGGA` gave an E-score of 0.387.
`CGAAATCG` has an E-score of 0.217.
The E-score of `ACGAAACA` is reported as -0.0996.
With `GTATTAGA` the E-score was -0.191.
`ATGGATTC` gave an E-score of -0.253.
With `GCTTCTAC` the E-score was 0.0159.
`CAGTCATC` gave an E-score of -0.146.
With `AAAAAGCG` the E-score was 0.192.
The E-score of `CAAGGTAC` is reported as -0.0375.
The E-score of `ACGTGTAG` is reported as -0.0513.
For `CCCTAAGA`, the E-score was -0.287.
The E-score of `ACCCGGAG` is reported as 0.202.
For `GATATAGC`, the E-score was 0.00443.
`GACTGTGC` gave an E-score of 0.00868.
The E-score of `CCAAAGGA` is reported as -0.295.
For `CATATACC`, the E-score was 0.0936.
For `CATACAGG`, the E-score was -0.19.
The E-score of `ACAATGCC` is reported as 0.0877.
The E-score of `ACGGCTGA` is reported as 0.219.
`AATTACGG` gave an E-score of 0.273.
With `ATAAGGTG` the E-score was -0.107.
`ACAAGGCT` gave an E-score of 0.00252.

Study 4 — method: DHFR PCA, deep sequencing; medium: yeast; added: (+)-ABA 0.11 µM; reference: wild-type fitted maximum; reading: higher = stronger binding
Target: ABI1, truncated, D143A, DHFR fusion (Arabidopsis thaliana)
Setting: methotrexate growth selection, single substitutions
Starting sequence: PYL1, truncated, DHFR fusion (Arabidopsis thaliana); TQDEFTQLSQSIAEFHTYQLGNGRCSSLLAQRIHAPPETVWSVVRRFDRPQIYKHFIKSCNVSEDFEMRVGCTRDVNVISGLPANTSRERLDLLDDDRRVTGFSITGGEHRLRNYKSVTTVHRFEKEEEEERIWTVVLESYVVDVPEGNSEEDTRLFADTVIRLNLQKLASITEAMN
`A30V`: “relative binding score” 19.7%.
For `V100I`, “relative binding score” read 18.4%.
`I105A`: “relative binding score” -10.1%.
`L20K` — result for “relative binding score”: 47.7%.
`D3R`: “relative binding score” 19.1%.
`G23Y`: “relative binding score” 1.44%.
For `I52R`, “relative binding score” read 12.6%.
For `D75Q`, “relative binding score” read 46.9%.
For `T135E`, “relative binding score” read -9.26%.
`D144C`: “relative binding score” -7.84%.
`Q19L`: “relative binding score” 4.52%.
For `L91V`, “relative binding score” read -5.47%.
Under “relative binding score”, `A13G` is recorded as 9.85%.
Under “relative binding score”, `T119W` is recorded as -4.84%.
`L93P`: “relative binding score” 6.4%.
`L156I` — result for “relative binding score”: 21.4%.

Study 5 — method: protein-binding microarray; molecule type: double-stranded DNA, one strand shown; medium: in vitro; tested at: 250 nM; setting: 60-bp whole probe; added: salmon DNA 0.4 mg/ml; reference: random background probes; reading: higher = stronger binding; shared flanks, not repeated: GCCTAGCAC … GTCTTGATTCGCTTGACGCTGCTG
Target: Interferon regulatory factor 5, full length, phosphomimetic (IRF5, Homo sapiens, UniProt Q13568-2, residues 1-514, K96S/S451D/S453D/S456D/S462D)
`TTAGGACTGGACTTTCGGTGAGTGCTA` gave a log fluorescence of 8.1 z-score.
With `GTAGGACTGGGGTTTCGGTTAGTGCTA` the log fluorescence was 6.66 z-score.
`TTGGATTTCAGTTCCGATTAGTGCTAG` gave a log fluorescence of 2.41 z-score.
For `GTTCAAAGTCCTACGGCTTCGTGCTAG`, the log fluorescence was -0.419 z-score.
For `CTCTGGGGGGTGGGATGAAGGTGCTAG`, the log fluorescence was 2.83 z-score.
`TTAGGTTTCGGTATTGGTTAGTGCTAG` gave a log fluorescence of 10.2 z-score.
`TCAGCTCTGATGTTGGGACTGTGCTAG` has a log fluorescence of -0.484 z-score.
For `TTAGGTATCCTACTGCATTAGTGCTAG`, the log fluorescence was -0.117 z-score.
The log fluorescence of `CTGCTGCAGGCAGCACGCTGGTGCTAG` is reported as -0.703 z-score.
The log fluorescence of `ATTTTAATCACATATACACTGGTGCTA` is reported as 0.76 z-score.
For `TCAAAACTCGTGTTTTTCACTGTGCTA`, the log fluorescence was 1.03 z-score.
`GACGATCTCAGTCTCGGGACGTGCTAG` has a log fluorescence of -0.109 z-score.
The log fluorescence of `TCAAAAAATGATTGGTTACTGTGCTAG` is reported as 0.434 z-score.
For `TCAAGACTTGATTTTGGACTGTGCTAG`, the log fluorescence was -0.0613 z-score.
The log fluorescence of `TTAGGTATCGACTATCGTTTAGTGCTA` is reported as 5.8 z-score.

Study 6 — target: CCND3, cyclin fold, Cln2 fusion (human); method: yeast growth competition, sequencing; medium: yeast; setting: weak parent motif; reference: not given; reading: higher = stronger binding
Starting sequence: BRCA2 docking peptide (human); PSIKRNLLNEFDR
Under “normalised enrichment score”, `E10L` is recorded as 0.121.
`F11P` — result for “normalised enrichment score”: 0.0455.
Under “normalised enrichment score”, `N6M` is recorded as 0.0436.
`E10P`: “normalised enrichment score” 0.129.
`R13Y`: “normalised enrichment score” 0.163.
Under “normalised enrichment score”, `L7F` is recorded as 0.0934.
For `F11G`, “normalised enrichment score” read 0.193.
Under “normalised enrichment score”, `N9H` is recorded as 0.0854.
`F11R` — result for “normalised enrichment score”: 0.122.
For `S2I`, “normalised enrichment score” read 0.049.
`D12T` — result for “normalised enrichment score”: 0.0802.
`S2F`: “normalised enrichment score” 0.0934.
Under “normalised enrichment score”, `F11I` is recorded as 0.185.
`D12L`: “normalised enrichment score” 0.0202.
For `P1Q`, “normalised enrichment score” read 0.191.
`L7C`: “normalised enrichment score” 0.0818.

Repeated from above (study 3):
The E-score of `ACCCGGAG` is reported as 0.202.
For `GATATAGC`, the E-score was 0.00443.
`GACTGTGC` gave an E-score of 0.00868.
The E-score of `CCAAAGGA` is reported as -0.295.
For `CATATACC`, the E-score was 0.0936.
For `CATACAGG`, the E-score was -0.19.
The E-score of `ACAATGCC` is reported as 0.0877.
